Measurements pooled from the literature.
Each numbered part is a random draw from the data of one study; scales do not carry over between parts. Changes are numbered by the printed parent chain.

Set 1
Target: RNA binding protein fox-1 homolog 2, RRM domain, GST-SBP tag (RBFOX2, Homo sapiens, UniProt O43251-10, residues 100-194)
Technique: RNA Bind-n-Seq
Form: RNA
Medium: in vitro
Tested at: 365 nM
Notes: natural RNA segment, single round, ends assumed
Baseline: no-protein control
Reading: higher = stronger binding
Quantity: RBNS enrichment (R)
All sequences stand within: GGGAGUUCUACAGUCCGACGAUC … UGGAAUUCUCGGGUGCCAA
Residues (chain): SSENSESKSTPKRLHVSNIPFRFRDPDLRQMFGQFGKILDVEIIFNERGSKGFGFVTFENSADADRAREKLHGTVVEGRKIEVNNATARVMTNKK
UAAUGAAGGACAAAGGGAACCAGGGACGGGGAGGAGGCAUAGUCUGUGGUGACAGACAAUGCUAAGGAGGGAUCGCUUUGCCUGCCGGGUUCUCAAGGCUCUCUACAGGU: 0.701
UGAUUUGUACUUACACUAAGUUUAGAUUAUCACAAAGAAGAACGUGCAUUCAGGCAGAUGCUGUCCCUUCAGAGGAAGCUACAGCAGUUGCUCCACUGAUGAAAAAUAUU: 0.197
AUGAAGUGCACUGUUCUCUCUUCAUUACGGUCCUGUUUAAGAGCCCAGCUAGUCUAUCUGAGCUCUCGCCUCCAUCCUUGUUUUAAUCAUGCUUCUACAAGGUGAAGUGU: 0.372
GGCAGGGGAGUGCUCCACAAGGUGGUUUGCUGGCUUCAGAGCCCUAGAAGCACAAGACAGUGGAGCCAGCGGAGCCGGGACUAGAGGAGUUGGGCAGUCUCAGUUGAGAA: 0.624
AGGACACCAGUCUUCAAGGAAAGGGACUUUUUUCCAGUCUGCCAAUCAUAUUGGGAAAGUGCUAGCUGUGCUCACCUUCAUGGGGCUGUUUCCAGCUCGUCCACAAGCUC: 0.429
GGCUCCGCCCCUGCAGCCCACACAGCACAACGUCUUACCGUGCCUAUUACCAAGCGAGUGUUUGUAACCAUGUAGUUUUGGAACCCACUGCAAAAUUUUCUACUGGCCAA: 0.474
AGGGGAGGCCUGACAGAGCCCAAGAAUGAGGACACCCUCGGCACGGGAACCCAUUCACUUAGCGUUUGCUCCAGUAGCUUUCCCUCUGCUACCAAUGCAGAUAAACGCGG: 0.646
UCCAUUCUCACCUCUAUUUUGAGCUUCAGUGCUUUAUUUCAGUAUGAGGAAAAACAACAACAAACUGAAGUGCGCUUUCCGUCCUUUCAAAGGACAACUGUCGGGAAGGG: 0.424
CGGUGUGGCAGCUUUUGGAUUUUUUUCCUCCGGGGAGCAUUGACUGUGUGGACAUUGUUUGAGGAGCUAGAAAGAAGAUCGGCUGGGGAUCACGAGCCCCUACUUCCCAA: 0.51
GUUAACAUGGGACCUUCUGUUUAGCUUCCUCUUGCUUCCCAAAGAUUUUAAGCAUUUUGUAAAUGUAUAAACUCACCUCUGGUAACAGUGGCCCAGACGCUGCUUUGUGC: 0.328
UGUGUGUGUGUGUGUGUGCGUGCGCGCGCGCGUGCGCACGCACGUGCAUGCACAUGCUAUGUAUUGGGUCCCUCCAAGGAUGAACCCUCUCUUUGGCUUAGAAGGCACUC: 0.22
GGUGAAGCUGGAUGGGGGAUCCAGUGGAGCAGGAGUUGACGGACAGUCCGUUCACAUCGCUGUGUUUCCUUGUUAACAUUUUUCUUUCUGCAGAGAGGAAGAUAUGUUUU: 0.81

Set 2
Target: ABI1, truncated, D143A, DHFR fusion (Arabidopsis thaliana)
Technique: DHFR PCA, deep sequencing
Medium: yeast
Notes: methotrexate growth selection, single substitutions
Added: (+)-ABA 200 µM
Baseline: wild-type fitted maximum
Reading: higher = stronger binding
Quantity: relative binding score
Starting sequence: PYL1, truncated, DHFR fusion (Arabidopsis thaliana); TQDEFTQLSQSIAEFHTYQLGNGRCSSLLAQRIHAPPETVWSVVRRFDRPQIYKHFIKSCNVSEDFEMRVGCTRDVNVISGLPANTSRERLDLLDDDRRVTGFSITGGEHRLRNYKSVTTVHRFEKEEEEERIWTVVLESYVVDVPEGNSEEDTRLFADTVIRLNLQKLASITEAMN
T101A: 87.9%
L138H: 47.8%
V100N: 10.3%
L28F: 90.4%
F66R: 89.5%
V145A: 70.8%
V136C: 91.1%
L94H: 105%
V161I: 105%
V43S: 47.9%
E125S: 101%
R69H: 100%
T6I: 98.2%
R99I: 18.8%
T86W: 99.3%
D159N: 89.8%
E64S: 98.9%

Set 3
Target: CCNB2, cyclin fold, Cln2 fusion (human)
Technique: yeast growth competition, sequencing
Medium: yeast
Notes: weak parent motif
Baseline: not given
Reading: higher = stronger binding
Quantity: normalised enrichment score
Starting sequence: ORC1 docking peptide (human); PRARKRLELGNLG
L9E: 0.0675
G10T: 0.305
A3L: 0.12
P1W: 0.666
L7T: -0.273
E8R: 0.301
P1R: 0.763
R2C: 0.0663
R2V: 0.298
L12G: 0.21
R2N: 0.063
L12K: 0.459
L7A: 0.366
L12V: 0.299
E8Q: 0.944
N11D: 0.237
K5R L9F: 0.554
P1L: 0.417
P1C: 0.664
K5T: 0.215
E8H: 0.148
R2F: -0.178
G10Y: 1.68
L9P: 0.205
E8M: 0.583

Set 4
Target: RING finger protein unkempt homolog, zinc fingers 1-6, GST-SBP tag (UNK, Homo sapiens, UniProt Q9C0B0, residues 30-357)
Technique: RNA Bind-n-Seq
Form: RNA
Medium: in vitro
Tested at: not given
Notes: RNA with constant flanks, ends assumed
Baseline: input RNA pool
Reading: higher = stronger binding
Quantity: bound/input enrichment
All sequences stand within: GGGAGUUCUACAGUCCGACGAUC … CAACAGAGGAUUGAGCAUCA
Construct (chain): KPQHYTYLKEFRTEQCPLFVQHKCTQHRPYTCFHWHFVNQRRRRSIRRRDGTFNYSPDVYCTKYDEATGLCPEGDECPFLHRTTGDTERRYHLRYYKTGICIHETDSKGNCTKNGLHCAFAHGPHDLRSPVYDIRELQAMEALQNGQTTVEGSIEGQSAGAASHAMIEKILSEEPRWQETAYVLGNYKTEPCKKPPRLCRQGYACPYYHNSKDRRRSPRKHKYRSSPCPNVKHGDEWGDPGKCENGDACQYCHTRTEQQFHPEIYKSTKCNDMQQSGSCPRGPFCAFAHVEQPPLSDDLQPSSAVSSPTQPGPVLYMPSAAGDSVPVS
GGGGCAUUAAUUGCUUCUCUUAUCAACUGCUACAUCAGAGAUAAUGCCGCUGUUGAUGGCAUCCGUUUACAUUUACAGGAUAUCUGCCCACUUCUAUAUAGCACUGAUGAUGCAAUUUGU: 0.498 ratio
ACUCCAAAGCCACUUCGAAGUAGUGCUGAUCCUGCACUGAAUCAAGAGGUUGCAUUAAAAUCCGAAUCAAGUCCAGAGUCACUGGGACUUUCUUUUACCAUGCCCCAGAUUCAAGAUCAG: 0.132 ratio
UUAUACCAAGUUGAAUAUGCCAUGGAAGCUAUUGGACAUGCAGGCACCUGUUUGGGAAUUUCCGCAAAUGAUGGUGUUUUGCUUGCAGCAGAGAGACGCAACAUCCACAAGCUUCUUGAU: 0.112 ratio
AGACUGGAGAGAAUAAAGAGCAGUCGCAAAUGAAGCUGCCCACCCUCGGCACUCUGCAGCUUCCGUUACUGAUCUAGAAGCCCUGUAGUGUGAAGCGGCCGCUGCAGGCCAUUGUACACA: 0.286 ratio
UUGUGGGGAUGAGGGUGGGAUGGGAAAGGGAUGUAUGGAUGUUAUUGGCAUUUUUAAGUGUUCCGAGUUUUUUGGGGUUUGGGGUGGUUUUUUUUCCUUGUUUUCCUUUUUUCCUUUUAA: 1.4 ratio
AAGAACUUCAAGGGUACUAUUGAAGAACUGGCUCCAAAUCAAUAUGUGAUUAGUGGUGAAGCCGCUAUUCUUAAUUCUACAACCAUUGAAAUCUCAGAGCUUCCCGUCAGAACAUGGACC: 0.345 ratio
UUGGACAUCCUCCUUCAGGAUACCACCAAAGAACCUUUGGAUCUGCCUGACAACCCCCGCAACCGGCAUUUUACCAACAGCGUGCCUAACCCUAGGAUCUCAGAUGCUGAACUUGAAGCU: 0.144 ratio
GUGGUGUGAACACGGCUCACUGCAGCCUCAACCUCCUGGACUCAGAGAUGUCGGCUUAUUUACCGGAAUUGCUUGAAGCCAGAGUCAUGGUGGAUGUCGGAAAGUGGCCCAUCUUCACUC: 0.0705 ratio
UUACGCUCUCCCGCGGCACGUCCGCGAGGACUUGAAGUCCUGAGCGCUCAAGUUUGUCCGCCGGUCGAGAGAAGGCCAUGGAGGUGCCGCCACCGGCACCGCGGAGCUUUCUCUGUAGAG: 0.0748 ratio
AGCUUGCCCAGUUGACCCGAAAAAUAGGACUUUUUAGAAUUGCAUUGCCACUUCUAAAAUCCCCGCAAUACUUAGAAUAACACAUCAGUGAGAUAAAUUUUACUCAAUUAUUUUACAAAC: 22.8 ratio
UCCUCCUGCCUCUGCCUCCUGAGUGCUUCAUUAAAGGCUAUGCCACUACACCUGGGAACACCGUUUCUAAGAAAGCUUCUUGUCUUUUCAUUUGGCAGGUAUCAUGUUCAUUUGUUGUUU: 0.199 ratio

Set 5
Target: Centromere-binding protein 1, full length, N-terminal tag (CBF1, Saccharomyces cerevisiae, UniProt P17106, residues 1-351)
Sequence of UniProt P17106 (whole entry, looked up): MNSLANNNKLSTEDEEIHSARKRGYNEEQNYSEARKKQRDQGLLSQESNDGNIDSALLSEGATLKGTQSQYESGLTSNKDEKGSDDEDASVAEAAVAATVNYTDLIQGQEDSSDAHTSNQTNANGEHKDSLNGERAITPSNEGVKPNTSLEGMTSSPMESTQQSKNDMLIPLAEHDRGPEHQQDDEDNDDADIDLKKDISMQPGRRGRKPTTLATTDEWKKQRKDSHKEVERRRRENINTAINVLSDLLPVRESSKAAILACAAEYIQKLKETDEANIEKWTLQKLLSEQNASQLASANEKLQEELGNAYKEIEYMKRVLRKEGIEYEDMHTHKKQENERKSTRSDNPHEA
Technique: protein-binding microarray
Form: double-stranded DNA, one strand shown
Medium: in vitro
Tested at: 0.8 µM
Notes: whole 60-bp probe, no competitor
Reading: higher = stronger binding
Quantity: fluorescence intensity
All sequences stand within: … GTCTTGATTCGCTTGACGCTGCTG
CTAAAATGTTGAAGCATCACCAGTAGGATGACCTTC: 498 a.u.
CTAAATCCAATATATACTCACATGTAACAACTTTTC: 805 a.u.
CTAAGGTTAAGAAATAGCATCAGATGTAATGGATTC: 491 a.u.
CTAAATAGTATAAAACACATCAGATAAACAAAATTC: 551 a.u.
GAACCCAAAATATACGGTGTCACCTCCTACTTTTAG: 491 a.u.
GAATCCAACTATGGTGACGTAAGAATTTACTTGTAG: 544 a.u.
CTACTCAGCGCGCACGTGCGGAGTGATCAGCCTTTC: 8090 a.u.
TGTACGAAGCTATTGCAGGTGTATATAGTAGTTAGG: 518 a.u.
CTACATCAATTCCATCACCCTGTCATTCAACTCTTC: 547 a.u.
CTAGAGCAAGATACTGAGCACGTGAATCGAGGATTC: 7690 a.u.
TGTACGAAGCTATTTCTCACCACTATAGTAGTTAGG: 494 a.u.
CTATCAAACCTTCACCTGGTGGTGCGTATCATTTTC: 565 a.u.
GAAATCCAGTGAATACACGTGTATATTTGACGGTAG: 3490 a.u.
TGTACGAAGCTATTTCGTGTGCTTATAGTAGTTAGG: 487 a.u.
CTACATGTATGGCTGATGGTGGTGTTCAAAAACTTC: 546 a.u.
CTAGGGCTAAAGTCTCATGAAACAGCGTCACTATTC: 506 a.u.
GAAAGGCCGAACCCCCACGAAAAATATCTGAATTAG: 494 a.u.
GAACACGCTATTTGTCATGCGAGGGAAATCCAGTAG: 676 a.u.
GAAGAGGCTTTTCAGAACGTGCTGTACTTTCGGTAG: 678 a.u.
CCTAACTACTATACACATGTGCGATAGCTTCGTACA: 932 a.u.
CTACTGAAAAAAATTCACATGTGTGTTGTACTTTTC: 654 a.u.
TGTACGAAGCTATGATGCGTGCTTATAGTAGTTAGG: 531 a.u.
GAAACATCCTGTTGTCATGCGACTAAAGGTATTTAG: 618 a.u.
GAACTTGTACGTTTTAACAACGTGAAGCACAACTAG: 635 a.u.
GAATCGAAAGAAGGCCGCATGACGTGGAGCAATTAG: 581 a.u.

For quick reference, copied from above (set 5):
CTAAATCCAATATATACTCACATGTAACAACTTTTC: 805 a.u.
TGTACGAAGCTATTGCAGGTGTATATAGTAGTTAGG: 518 a.u.
CTAAAATGTTGAAGCATCACCAGTAGGATGACCTTC: 498 a.u.
GAAACATCCTGTTGTCATGCGACTAAAGGTATTTAG: 618 a.u.
GAAAGGCCGAACCCCCACGAAAAATATCTGAATTAG: 494 a.u.
GAAATCCAGTGAATACACGTGTATATTTGACGGTAG: 3490 a.u.
GAATCCAACTATGGTGACGTAAGAATTTACTTGTAG: 544 a.u.
CTAAATAGTATAAAACACATCAGATAAACAAAATTC: 551 a.u.
GAACTTGTACGTTTTAACAACGTGAAGCACAACTAG: 635 a.u.
CTACATCAATTCCATCACCCTGTCATTCAACTCTTC: 547 a.u.
